Measurements of several laboratories.
Protocols differ between the studies behind these lines. Several values in a cell are separate wells, animals, samples, runs or records. ± gives the spread as reported.
MT-CYB/UQCRFS1: MT-CYB/UQCRFS1 (Homo sapiens, UniProt P00156+P47985)
Sequence of UniProt P47985 (whole entry, looked up): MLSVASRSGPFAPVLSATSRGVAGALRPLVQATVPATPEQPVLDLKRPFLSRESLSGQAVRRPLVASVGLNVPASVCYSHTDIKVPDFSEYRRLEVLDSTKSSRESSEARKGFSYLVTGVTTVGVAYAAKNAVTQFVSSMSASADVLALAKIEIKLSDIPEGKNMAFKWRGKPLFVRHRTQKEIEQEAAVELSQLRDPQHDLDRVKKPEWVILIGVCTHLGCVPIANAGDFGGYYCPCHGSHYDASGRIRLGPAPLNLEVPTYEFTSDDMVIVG
Sequence of UniProt P00156 (whole entry, looked up): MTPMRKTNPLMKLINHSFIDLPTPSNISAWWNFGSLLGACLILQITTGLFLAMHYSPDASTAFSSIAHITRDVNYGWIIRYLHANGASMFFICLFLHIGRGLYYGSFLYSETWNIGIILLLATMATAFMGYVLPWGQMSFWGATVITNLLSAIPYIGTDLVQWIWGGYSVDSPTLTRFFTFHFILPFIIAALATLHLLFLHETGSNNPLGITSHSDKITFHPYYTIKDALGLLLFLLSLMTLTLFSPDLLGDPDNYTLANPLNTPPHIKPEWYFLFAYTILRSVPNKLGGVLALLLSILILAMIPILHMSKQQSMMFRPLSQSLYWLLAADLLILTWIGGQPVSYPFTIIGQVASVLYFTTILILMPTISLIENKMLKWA
TOP2A: DNA topoisomerase 2-alpha (TOP2A, Homo sapiens, UniProt P11388)
Sequence of UniProt P11388 (whole entry, looked up): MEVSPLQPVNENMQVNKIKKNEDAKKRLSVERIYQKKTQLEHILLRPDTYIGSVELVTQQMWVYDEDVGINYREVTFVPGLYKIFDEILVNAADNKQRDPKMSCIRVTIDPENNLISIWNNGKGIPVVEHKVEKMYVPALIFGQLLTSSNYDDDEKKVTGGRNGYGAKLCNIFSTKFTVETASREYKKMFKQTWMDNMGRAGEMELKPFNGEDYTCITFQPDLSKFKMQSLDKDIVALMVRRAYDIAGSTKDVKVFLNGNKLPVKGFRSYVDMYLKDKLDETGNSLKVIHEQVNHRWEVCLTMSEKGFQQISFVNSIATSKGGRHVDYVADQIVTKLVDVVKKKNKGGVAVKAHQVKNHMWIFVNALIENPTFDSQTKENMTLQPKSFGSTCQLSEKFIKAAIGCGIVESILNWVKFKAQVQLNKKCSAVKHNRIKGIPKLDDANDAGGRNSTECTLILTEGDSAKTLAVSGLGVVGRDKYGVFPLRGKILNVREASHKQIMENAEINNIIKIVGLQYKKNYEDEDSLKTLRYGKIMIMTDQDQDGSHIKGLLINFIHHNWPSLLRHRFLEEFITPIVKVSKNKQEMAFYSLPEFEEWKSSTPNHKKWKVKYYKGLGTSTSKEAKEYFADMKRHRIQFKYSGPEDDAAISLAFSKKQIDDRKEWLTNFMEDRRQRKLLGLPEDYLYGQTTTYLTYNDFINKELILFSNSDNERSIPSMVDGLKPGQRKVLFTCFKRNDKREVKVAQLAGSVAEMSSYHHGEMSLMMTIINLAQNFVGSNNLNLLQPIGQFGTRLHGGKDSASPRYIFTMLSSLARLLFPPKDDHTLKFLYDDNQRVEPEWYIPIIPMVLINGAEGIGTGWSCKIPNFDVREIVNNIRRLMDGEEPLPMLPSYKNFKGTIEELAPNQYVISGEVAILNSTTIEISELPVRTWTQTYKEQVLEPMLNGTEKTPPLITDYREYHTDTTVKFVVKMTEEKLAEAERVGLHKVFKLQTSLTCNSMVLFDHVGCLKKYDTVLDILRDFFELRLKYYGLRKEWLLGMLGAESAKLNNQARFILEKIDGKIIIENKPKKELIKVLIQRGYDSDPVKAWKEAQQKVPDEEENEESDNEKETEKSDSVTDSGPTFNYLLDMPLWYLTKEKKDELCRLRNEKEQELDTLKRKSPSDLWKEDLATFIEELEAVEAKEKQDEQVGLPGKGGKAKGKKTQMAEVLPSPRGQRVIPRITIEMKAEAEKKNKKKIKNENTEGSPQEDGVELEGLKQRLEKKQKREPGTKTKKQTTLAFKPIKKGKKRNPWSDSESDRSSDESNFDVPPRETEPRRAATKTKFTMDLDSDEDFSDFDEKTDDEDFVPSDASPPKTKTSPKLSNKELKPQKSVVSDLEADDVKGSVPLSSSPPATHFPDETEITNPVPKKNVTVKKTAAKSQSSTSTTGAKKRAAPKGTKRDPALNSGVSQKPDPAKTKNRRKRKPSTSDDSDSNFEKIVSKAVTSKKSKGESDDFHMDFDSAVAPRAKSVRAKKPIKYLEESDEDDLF
Dehaloperoxidase B ferric: Dehaloperoxidase B, ferric (Amphitrite ornata, UniProt Q9NAV7)
KEAP1 Kelch domain: Kelch-like ECH-associated protein 1, Kelch domain (KEAP1, Homo sapiens, UniProt Q14145)
Sequence of UniProt O95747 (whole entry, looked up): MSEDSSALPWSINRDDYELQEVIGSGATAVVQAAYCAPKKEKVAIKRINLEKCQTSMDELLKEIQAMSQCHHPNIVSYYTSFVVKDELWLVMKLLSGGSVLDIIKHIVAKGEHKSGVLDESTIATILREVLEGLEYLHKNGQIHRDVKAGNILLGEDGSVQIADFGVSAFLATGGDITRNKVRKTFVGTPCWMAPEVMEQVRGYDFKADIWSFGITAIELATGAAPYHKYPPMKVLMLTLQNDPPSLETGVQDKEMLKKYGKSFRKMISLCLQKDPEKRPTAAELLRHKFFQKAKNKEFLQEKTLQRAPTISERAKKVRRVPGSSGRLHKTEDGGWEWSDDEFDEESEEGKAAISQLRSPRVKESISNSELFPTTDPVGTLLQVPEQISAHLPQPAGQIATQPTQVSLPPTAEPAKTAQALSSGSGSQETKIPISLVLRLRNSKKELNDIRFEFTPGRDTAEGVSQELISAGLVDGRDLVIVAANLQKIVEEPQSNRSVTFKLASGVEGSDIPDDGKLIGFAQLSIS
Sequence of UniProt Q64663 (whole entry, unmodified, looked up): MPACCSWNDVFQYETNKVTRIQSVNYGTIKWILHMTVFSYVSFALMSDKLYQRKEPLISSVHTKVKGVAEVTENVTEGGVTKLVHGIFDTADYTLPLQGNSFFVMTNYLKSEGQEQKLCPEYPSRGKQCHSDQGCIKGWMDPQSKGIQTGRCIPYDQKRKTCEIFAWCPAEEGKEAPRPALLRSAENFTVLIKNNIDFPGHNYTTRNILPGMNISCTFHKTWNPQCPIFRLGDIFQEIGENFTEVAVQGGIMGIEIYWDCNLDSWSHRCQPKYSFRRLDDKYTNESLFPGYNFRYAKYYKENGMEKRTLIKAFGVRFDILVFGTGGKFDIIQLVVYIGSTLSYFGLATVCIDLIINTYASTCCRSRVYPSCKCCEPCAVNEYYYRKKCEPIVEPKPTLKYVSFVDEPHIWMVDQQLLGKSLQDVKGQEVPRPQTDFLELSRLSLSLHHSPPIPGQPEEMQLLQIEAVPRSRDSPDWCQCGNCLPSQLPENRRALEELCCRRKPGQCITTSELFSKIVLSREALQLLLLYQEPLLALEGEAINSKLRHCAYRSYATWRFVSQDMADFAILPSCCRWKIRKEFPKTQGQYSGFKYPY
Sequence of UniProt Q14145 (whole entry, looked up): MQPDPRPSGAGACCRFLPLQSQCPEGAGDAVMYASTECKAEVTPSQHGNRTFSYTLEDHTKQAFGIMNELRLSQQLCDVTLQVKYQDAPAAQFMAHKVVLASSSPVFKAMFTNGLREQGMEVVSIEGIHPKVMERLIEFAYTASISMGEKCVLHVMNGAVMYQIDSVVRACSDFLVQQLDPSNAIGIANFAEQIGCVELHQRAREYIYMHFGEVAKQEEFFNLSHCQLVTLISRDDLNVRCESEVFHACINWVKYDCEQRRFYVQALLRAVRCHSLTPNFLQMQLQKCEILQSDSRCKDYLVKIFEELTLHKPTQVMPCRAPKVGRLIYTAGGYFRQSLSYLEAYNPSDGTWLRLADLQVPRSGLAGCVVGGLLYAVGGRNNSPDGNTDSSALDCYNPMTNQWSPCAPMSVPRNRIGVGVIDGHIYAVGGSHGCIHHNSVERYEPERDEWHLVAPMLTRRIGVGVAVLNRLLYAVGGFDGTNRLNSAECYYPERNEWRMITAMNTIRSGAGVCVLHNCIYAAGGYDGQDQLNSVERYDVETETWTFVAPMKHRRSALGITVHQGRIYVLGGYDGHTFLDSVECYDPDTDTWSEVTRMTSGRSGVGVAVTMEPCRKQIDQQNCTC
Sequence of UniProt P51575 (whole entry, unmodified, looked up): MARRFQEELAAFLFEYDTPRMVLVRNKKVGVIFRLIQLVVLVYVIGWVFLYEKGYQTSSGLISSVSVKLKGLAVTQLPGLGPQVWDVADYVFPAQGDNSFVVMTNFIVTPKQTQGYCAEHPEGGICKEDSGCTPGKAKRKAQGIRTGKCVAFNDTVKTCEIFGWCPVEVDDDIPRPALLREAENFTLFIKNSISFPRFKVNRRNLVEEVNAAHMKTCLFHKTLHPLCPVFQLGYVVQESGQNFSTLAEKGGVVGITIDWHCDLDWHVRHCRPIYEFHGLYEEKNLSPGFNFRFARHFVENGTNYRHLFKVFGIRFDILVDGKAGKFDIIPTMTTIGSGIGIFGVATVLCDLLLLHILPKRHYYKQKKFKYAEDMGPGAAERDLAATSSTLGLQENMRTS
Sequence of UniProt P31941 (whole entry, looked up): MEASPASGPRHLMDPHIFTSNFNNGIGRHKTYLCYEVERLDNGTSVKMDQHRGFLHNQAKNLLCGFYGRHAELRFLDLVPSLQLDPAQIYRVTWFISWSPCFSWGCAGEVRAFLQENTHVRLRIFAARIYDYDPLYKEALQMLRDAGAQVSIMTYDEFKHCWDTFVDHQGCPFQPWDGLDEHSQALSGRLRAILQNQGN
Sequence of UniProt Q16774 (whole entry, unmodified, looked up): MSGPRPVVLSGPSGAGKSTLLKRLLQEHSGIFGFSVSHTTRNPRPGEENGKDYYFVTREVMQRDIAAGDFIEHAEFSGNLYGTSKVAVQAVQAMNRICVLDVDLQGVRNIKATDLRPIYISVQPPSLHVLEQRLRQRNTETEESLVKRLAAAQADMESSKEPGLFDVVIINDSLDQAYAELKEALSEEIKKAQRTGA
Sequence of UniProt Q8K3Y3 (whole entry, looked up): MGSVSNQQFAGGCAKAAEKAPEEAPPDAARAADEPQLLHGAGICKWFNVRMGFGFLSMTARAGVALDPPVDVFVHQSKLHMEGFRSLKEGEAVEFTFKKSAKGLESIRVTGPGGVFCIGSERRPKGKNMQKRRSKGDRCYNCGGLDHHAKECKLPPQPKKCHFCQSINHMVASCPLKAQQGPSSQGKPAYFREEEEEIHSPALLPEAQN

Structure (SMILES) | target or system | assay | test system | setting | how to read | endpoint | value
Nc1nc2c(ncn2[C@@H]2O[C@H](COP(=O)(O)OP(=O)(O)O[C@H]3O[C@H](CO)[C@@H](O)[C@H](O)[C@@H]3O)[C@@H](O)[C@H]2O)c(=O)[nH]1 | AncA-Alt ancestral enzyme | substrate, GDP-Glo GDP release | – | pH 6.5, 27 °C, apparent Km, added: 25 mM mannose acceptor | – | Km | 470 ± 20 µM
NC(=O)NOCCCCCCCCCCCC[P+](c1ccccc1)(c1ccccc1)c1ccccc1.O=C([O-])C(F)(F)F | MT-CYB/UQCRFS1 | complex III-dependent respiration, Seahorse XF96 | HCT-116 | 2 µM, 24 h | relative to: control | oxygen consumption rate | 55.1 ± 14.8%
O=c1nc(SCc2cc(F)cc(C(F)(F)F)c2)nc(SCc2ccc3nc(Cl)ccc3c2)[nH]1 | TOP2A | ATPase activity | – | 7.8 µM, added: ATP 0.25 mM | – | ATP hydrolysis rate | 0.197 µM/min and 1.64 µM/min
NC(=O)NOCCCCCCCCCC[P+](c1ccccc1)(c1ccccc1)c1ccccc1.O=C([O-])C(F)(F)F | MT-CYB/UQCRFS1 | complex III-dependent respiration, Seahorse XF96 | HCT-116 | 0.1 µM, 24 h | relative to: control | oxygen consumption rate | 101 ± 3.3%
NC/C(=C\F)COc1cccc(Cn2c(=S)[nH]c(=O)c3[nH]cnc32)c1 | Peroxidasin homolog (PXDN, Homo sapiens, UniProt Q92626) | Amplex UltraRed | – | 5 µM | relative to: control | remaining activity | 69.1%
Nc1nc2[nH]cc(CCc3ccc(C(=O)N[C@@H](CCC(=O)O)C(=O)O)cc3)c2c(=O)[nH]1 | TYMS (Homo sapiens, UniProt P04818) | from literature Kd | – | – | – | binding efficiency index | 15
CC(C)C[C@H](NC(=O)C[C@H](O)[C@H](CC(C)C)NC(=O)[C@H](Cc1c[nH]cn1)NC(=O)CNC(=O)[C@@H](NC(=O)[C@H](C)NC(=O)[C@H](Cc1c[nH]c2ccccc12)NC(=O)[C@H](CCC(N)=O)NC(=O)[C@@H](Cc1ccccc1)NC(=O)COCCOCCNC(=O)CCC(C(=O)O)N1CCN(CC(=O)O)CCN(CC(=O)O)CCN(CC(=O)O)CC1)C(C)C)C(N)=O (stereo partly drawn) [lutetium-177 labelled] | – | – | BALB/c nu/nu mice, female, skin | 100 pmol, 30 min, time course 0.5 h, added: PA 300 µg | – | tissue uptake | 1.6 ± 0.4 %ID/g
O=C1Nc2ccc(Br)cc2C1=O | Dehaloperoxidase B ferric | product, HPLC | – | added: 5-bromoindole 500 µM, H2O2 500 µM | – | share of total products | 2.8%
O=C(COP(=O)(O)O)[C@@H](O)[C@H](O)[C@H](O)COP(=O)(O)O | OXSR1 (Homo sapiens, UniProt O95747) | thermal proteome profiling | HepG2 cell lysate | concentration not given, 57 over 37 °C | relative to: compound over control | thermal stability ratio | 0.667 and 0.5 and 0.609
CC(C)CC(=O)N[C@H](C(=O)N[C@H](C(=O)N[C@@H](CC(C)C)[C@@H](O)CC(=O)N[C@@H](C)C(=O)N[C@@H](CC(C)C)[C@@H](O)CC(=O)NCCOCCC(=O)NCCCC[C@H](NC(=O)CN1CCN(CC(=O)O)CCN(CC(=O)O)CC1)C(=O)O)C(C)C)C(C)C | Cathepsin D (CTSD, Homo sapiens, UniProt P07339) | surface plasmon resonance | – | – | – | dissociation rate constant | 0.000744 s⁻¹
O=c1ccn([C@@H]2O[C@H](COP(=O)(O)OP(=O)(O)O)[C@@H](O)[C@H]2O)c(=O)[nH]1 | ABO (Homo sapiens, UniProt P16442, G235S/G268A/L266M/R176G/W181E) | methyl-TROSY NMR titration lineshape analysis | – | apo mutant enzyme | – | koff | 1700 ± 70 s⁻¹
O=c1nc(SCc2cc(F)cc(C(F)(F)F)c2)nc(SCc2ccc3sccc3c2)[nH]1 | TOP2A | DNA cleavage | – | 7.8 µM | – | mean linear DNA | 0%
COc1cc2c(c(OC)c1OC)C(=O)c1c(cc(C)c(O)c1OC)C2=O | HK-2 co-cultured with HepaRG | MTT | – | 133.33 µM, 48 h | relative to: untreated control | viability | 11.2 ± 5.93%
Nc1ncnc2c1ncn2[C@@H]1O[C@H](COP(=O)(O)CP(=O)(O)OP(=O)(O)O)[C@@H](O)[C@H]1O | P2X purinoceptor 1 (P2RX1, Homo sapiens, UniProt P51575, E282A) | saturation binding | HEK293 | 13 nM | – | specific binding | 455 CCPM and 482 CCPM
Nc1nc2c(ncn2[C@@H]2O[C@H](COP(=O)(O)O)[C@@H](O)[C@H]2O)c(=O)[nH]1 | GUK1 (Homo sapiens, UniProt Q16774, T83A) | binding, ITC | – | – | – | ΔH | -11.9 ± 0.1 kcal/mol
NCCS(=O)(=O)O | SLC6A6 (Homo sapiens, UniProt P31641, S402A) | binding, microscale thermophoresis | – | 15.6 µM, room temperature, added: 50 nM labelled protein | higher = more binding | normalised MST signal | -0.027
CCCCOc1cc(C(=O)NCCN(CC)CC)c2ccccc2n1 | PKD2L1 (Homo sapiens, UniProt Q9P0L9) | ion current, whole-cell patch clamp | – | 10 µM, 2 s prepulse | – | inactivation V1/2 | -20 mV
NC(=O)NOCCCCCCCCCCCCCC[P+](c1ccccc1)(c1ccccc1)c1ccccc1.O=C([O-])C(F)(F)F | MT-CYB/UQCRFS1 | complex III-dependent respiration, Seahorse XF96 | HCT-116 | 0.5 µM, 24 h | relative to: control | oxygen consumption rate | 76.4 ± 3.01%

Structure (SMILES) | target or system | assay | test system | setting | how to read | endpoint | value
C[N+](C)(C)Cc1cccc(N=Nc2cccc(C[N+](C)(C)C)c2)c1 | muscarinic receptor, frog | potassium current, antagonist | atrial trabeculae | added: carbachol | – | Schild plot slope | 1
Oc1ccc(/C=C/c2cc(O)cc(O)c2)cc1 | O-methyltransferase (Sorghum bicolor, UniProt A0A1B6PFV1) | biolayer interferometry | – | added: saturating sinefungin | relative to: apo | koff decrease | 2.22 fold
O=C1Cc2ccccc2N1 | Dehaloperoxidase B ferric | product, HPLC | – | 5 min, pH 7, 25 °C, enzyme 10 µM, added: indole and H2O2 500 µM each | – | product formed | 37.3 M
CC(=C/C(=O)O)/C=C/C=C(\C)C1C=C2C(C)(C)CCCC2(C)O1 (stereo not drawn) | Rhodopsin (RHO, Homo sapiens, UniProt P08100, P23H) | immunostaining, item: opsin | COS-7 transfected | 1.00 µM, unit not given | relative to: surface over total stained cells | plasma membrane localization | 0.08
CC1(C)C(N(O)C(=O)Nc2ccc(Cl)cc2)N(c2ccc(Cl)cc2)C(=O)N1CC(=O)N/N=C/C=C/c1ccc([N+](=O)[O-])o1 (stereo not drawn) | Protein transport protein Sec61 subunit alpha isoform 1 (Homo sapiens, UniProt P61619) | Sec61-dependent translocation, inhibitor, item: CD4 signal peptide-FLuc reporter | HEK293 | concentration not given, 6 h | relative to: mock | FLuc/RLuc ratio | 0.411
CN(C)C(=O)C(CCN1CCC(O)(c2ccc(Cl)cc2)CC1)(c1ccccc1)c1ccccc1 | Calcium-activated potassium channel subunit alpha-1, with LRRC26 γ1 subunit (KCNMA1, Homo sapiens, UniProt Q12791) | BK current, inside-out patch clamp | excised membrane patch | 1 µM, γ1 subunit coexpressed, added: nominally 0 Ca2+ cytosolic | – | effective gating valence | 1.32 elementary charges
CCCC(CCC)c1nc2c(Nc3ccc(C#CCCCCCCCCN)cc3)nc3ccccc3c2[nH]1 | HTR1E (Homo sapiens, UniProt P28566) | PDSP screening | – | – | – | off-target affinity | inactive
O=C1CCC(N2Cc3cc(C4CCN(Cc5ccccc5)CC4)ccc3C2=O)C(=O)N1 (stereo not drawn) | CRBN/Zinc finger protein Helios (Homo sapiens, UniProt Q96SW2+Q9UKS7) | degrader, immunoblot, item: Helios | Jurkat | 4 h | – | Dmax | 55%
Cn1c(SCc2ccccc2Cl)nc(=O)c2c1NC(=O)CC2c1cccc(O)c1 (stereo not drawn) | Protein lin-28 homolog A (Mus musculus, UniProt Q8K3Y3) | – | – | – | – | Hill slope | -1.8
COc1oc(=O)c2cc(N)ccc2c1Cl | glpG (Escherichia coli, UniProt P09391) | substrate cleavage, inhibitor | NR698 | – | – | IC50 | inactive
CC(C)(O)c1ccccc1CC[C@@H](SCC1(CC(=O)O)CC1)c1cccc(/C=C/c2ccc3ccc(Cl)cc3n2)c1 | Cysteinyl leukotriene receptor 1 (Mus musculus, UniProt Q99JA4) | item: cysteinyl leukotrienes | female mice | intraperitoneal, 30 mg/kg | – | BAL fluid CysLT level | inhibited
Nc1ncnc2c1ncn2[C@@H]1O[C@H](COP(=O)(O)OP(=O)(O)OP(=O)(O)O)[C@@H](O)[C@H]1O | P2X purinoceptor 7 (P2rx7, Rattus norvegicus, UniProt Q64663) | ion current, agonist, two-electrode voltage clamp | Xenopus laevis oocytes | 11 µM | relative to: highest concentration response | normalized current | 0.11 and 0.16 and 0.05
CC(=O)N[C@@H](C)C(=O)N[C@@H](CC(N)=O)C(=O)NCC(=O)N[C@@H](CC(N)=O)C(=O)N[C@@H](C)C(=O)N[C@@H](CCC(=O)O)C(=O)N[C@@H](CC(N)=O)C(=O)N[C@@H](CCC(=O)O)C(=O)N[C@@H](CCC(=O)O)C(=O)N[C@@H](CC(N)=O)C(=O)NCC(=O)N[C@@H](CCC(=O)O)C(=O)N[C@@H](CCC(N)=O)C(=O)N[C@@H](CCC(=O)O)C(=O)N[C@@H](C)C(=O)N[C@@H](CC(=O)O)C(=O)N[C@@H](CC(N)=O)C(=O)N[C@@H](CCC(=O)O)C(=O)N[C@H](C(=O)N[C@@H](CC(=O)O)C(N)=O)C(C)C | KEAP1 Kelch domain | binding, ITC | – | pH 7, 298.15 K | – | ΔG | -6.66 ± 0.07 kcal/mol
COc1c(O)cc2c(c1O)C(=O)c1c(cc(C)c(O)c1OC)C2=O | HK-2 co-cultured with HepaRG | MTT | – | 266.67 µM, 48 h | relative to: untreated control | viability | 21.3 ± 4.36%
Cc1ccc(N2CC(C(N)=O)CC2=O)cc1 (stereo not drawn) | YTHDF2 (Homo sapiens, UniProt Q9Y5A9) | binding, affinity selection mass spectrometry | – | – | relative to: other proteins in batch | log fold enrichment | 0
C=CC(=O)N1CCN(c2nc(OC[C@@H]3CCCN3C)nc3c(F)c(-c4nc(N)cc(C)c4C(F)(F)F)c(Cl)cc23)[C@@H](C)C1 | GTPase KRas, GDP-bound (KRAS, Homo sapiens, UniProt P01116, A146T) | SPR | – | – | – | dissociation rate constant koff | 0.117 ± 0.0019 s⁻¹
CCC1(O)CCCN(C(=O)c2ccc(-c3ccc(F)c(NC(=O)CCl)c3)cc2)C1 (stereo not drawn) | DNA dC->dU-editing enzyme APOBEC-3A (Homo sapiens, UniProt P31941) | covalent modifier, intact protein mass spectrometry, item: adduct +26309 Da | – | 125 µM, 3 h, 5-fold molar excess | – | protein adduct | 100%
CC[C@H](C)[C@H](NC(=O)[C@@H]1CCCN1C(=O)[C@H](CC(C)C)NC(=O)[C@H](Cc1ccccc1)NC(=O)[C@H](CCC(=O)O)NC(=O)CNC(=O)[C@@H](NC(=O)[C@H](CCC(=O)O)NC(=O)[C@H](CCC(=O)O)NC(=O)[C@H](CC(=O)O)NC(=O)[C@H](CC(C)C)NC(=O)[C@H](CCC(N)=O)NC(=O)[C@H](CC(C)C)NC(=O)[C@H](CCC(N)=O)NC(=O)[C@H](C)NC(=O)[C@H](Cc1ccccc1)NC(C)=O)[C@@H](C)O)C(=O)N[C@@H](CCC(N)=O)C(=O)N1CCC[C@H]1C(=O)N[C@@H](C)C(=O)N[C@@H](CCC(N)=O)C(N)=O | KEAP1 Kelch domain | ITC | – | concentration not given | – | binding stoichiometry | 1.08

Some of these lines once more:
Structure (SMILES) | target or system | assay | test system | setting | how to read | endpoint | value
C=CC(=O)N1CCN(c2nc(OC[C@@H]3CCCN3C)nc3c(F)c(-c4nc(N)cc(C)c4C(F)(F)F)c(Cl)cc23)[C@@H](C)C1 | GTPase KRas, GDP-bound (KRAS, Homo sapiens, UniProt P01116, A146T) | SPR | – | – | – | dissociation rate constant koff | 0.117 ± 0.0019 s⁻¹
NC/C(=C\F)COc1cccc(Cn2c(=S)[nH]c(=O)c3[nH]cnc32)c1 | Peroxidasin homolog (PXDN, Homo sapiens, UniProt Q92626) | Amplex UltraRed | – | 5 µM | relative to: control | remaining activity | 69.1%
C[N+](C)(C)Cc1cccc(N=Nc2cccc(C[N+](C)(C)C)c2)c1 | muscarinic receptor, frog | potassium current, antagonist | atrial trabeculae | added: carbachol | – | Schild plot slope | 1
CN(C)C(=O)C(CCN1CCC(O)(c2ccc(Cl)cc2)CC1)(c1ccccc1)c1ccccc1 | Calcium-activated potassium channel subunit alpha-1, with LRRC26 γ1 subunit (KCNMA1, Homo sapiens, UniProt Q12791) | BK current, inside-out patch clamp | excised membrane patch | 1 µM, γ1 subunit coexpressed, added: nominally 0 Ca2+ cytosolic | – | effective gating valence | 1.32 elementary charges
